Measurements from different studies.
Every numbered part comes from another study and shows a few of its results, in no order.

Study 1
Target: Histone acetyltransferase KAT6A, winged helix 1, GST fusion (KAT6A, Homo sapiens, UniProt Q92794, residues 1-85)
Method: protein binding microarray
Molecule type: double-stranded DNA, one strand shown
Sample: in vitro
Concentration: not given
Setting: 8-mer, flanks averaged, mean of 2 arrays, mostly near background
Baseline: not given
Reading: higher = stronger binding
Construct (chain): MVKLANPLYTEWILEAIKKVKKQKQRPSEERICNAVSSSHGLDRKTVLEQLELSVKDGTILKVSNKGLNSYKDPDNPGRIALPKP
For `GCACATCC`, the E-score was 0.0498.
For `CGAAACCG`, the E-score was 0.221.
`CTGTAATC` has an E-score of -0.069.
For `CGGTTATA`, the E-score was 0.123.
`AACACTTG` has an E-score of -0.236.
`CATAATAC` has an E-score of -0.1.
`CGATCAAC` gave an E-score of -0.0733.
`ATCAGGAA` has an E-score of -0.184.
The E-score of `GGTGTGCA` is reported as -0.182.
With `CACTAACA` the E-score was -0.175.
`CATCCCCC` gave an E-score of -0.0208.
`CTGGTGGC` gave an E-score of -0.234.
`ACATTTAT` gave an E-score of -0.0637.
For `GAATATTA`, the E-score was -0.00392.
`AAATAGGA` gave an E-score of -0.138.
The E-score of `ACTATTAT` is reported as -0.0793.
With `ACAGGGAA` the E-score was -0.27.
For `AGGTATCA`, the E-score was -0.245.
For `GAACTACA`, the E-score was -0.0336.
The E-score of `CAATCACG` is reported as 0.171.
`ACATCCGT` has an E-score of 0.13.
The E-score of `CTAGATTC` is reported as -0.237.
For `GGCTGACA`, the E-score was 0.153.
`CGAATCTC` has an E-score of 0.0159.
For `CCGAATAC`, the E-score was 0.164.

Study 2
Target: RING finger protein unkempt homolog, zinc fingers 1-6, SBP tag (UNK, Homo sapiens, UniProt Q9C0B0, residues 30-357)
Sequence of UniProt Q9C0B0 (30-357, looked up): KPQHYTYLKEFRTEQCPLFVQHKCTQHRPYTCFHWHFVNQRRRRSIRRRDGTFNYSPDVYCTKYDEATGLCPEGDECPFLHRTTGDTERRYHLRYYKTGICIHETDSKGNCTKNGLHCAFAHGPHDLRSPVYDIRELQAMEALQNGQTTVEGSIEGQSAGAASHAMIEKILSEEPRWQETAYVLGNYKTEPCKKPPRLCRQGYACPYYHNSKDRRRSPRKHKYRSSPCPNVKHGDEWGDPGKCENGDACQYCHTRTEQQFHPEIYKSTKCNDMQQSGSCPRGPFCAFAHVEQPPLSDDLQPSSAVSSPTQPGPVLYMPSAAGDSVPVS
Method: RNA Bind-n-Seq
Molecule type: RNA
Sample: in vitro
Concentration: 100 nM
Setting: RNA with constant flanks, vertebrate orthologous sites, ends assumed
Baseline: input RNA pool
Reading: higher = stronger binding
Constant ends, left off below: GGGAGUUCUACAGUCCGACGAUC … CAACAGAGGAUUGAGCAUCA
`AAACCCCGAUUUUAGAUGUGAUAUUUAGGCUUUCAUUCCAGUUUGUUUUGUUUUUUUGUUUAGAUACCAAUCUUUUAAAUUCUUGCAUUUUAGUAAGAAAGCUAUCUUUUUAUGGAUGUU` gave a bound/input enrichment of 1.07 ratio.
`UUGUGAGGAGUGGGAAAGAUGAGAUUCUUCUCCCUCCAAGUAAAACUGACAUAAUUUCCUUUUAGUUCUGUCUUUUGAAACAAAGAUGCCCUUUUCUCUUAAUUGUGUGACACCACUAUC` gave a bound/input enrichment of 0.596 ratio.
With `AUUUGAAAUGUAGUUAGUUAUAUUUAAUUAUCUCAUUCCUGAGUUCCUUUUUCAUUAAAGUAGCUUUCAUUUCUUUUAUUGCAGUUAUUAAAAUAUGAAUAAAUAGAAGGUUUGUGCCCG` the bound/input enrichment was 0.574 ratio.
`GUUUUUGUCAUUUUUCACAUUUCCUGUAAAUAAUGGAUAAUCAUCAUUUAUUUUCUUGUAGAAUGUAUUUUUAAAAAUGUGGGUAGACCAUAAAUGUACUUGCUGACUUCAUUCAUUAUU` has a bound/input enrichment of 0.836 ratio.
The bound/input enrichment of `CAUGCACAUGCCGCUAUCACCAAAAUCAGACUGCCAUAUUUCAAAUUUCAUUCAGAGUUUUAGUGUUUCCUAUUCCCUACCCUUCCUACUACUUUCAAUGAUGAAGUAUCCUACGUUCUC` is reported as 2.09 ratio.
`CGUUCCCUGCUCUUGGGUGCGACUGAACACGAAGCAUCUGCCAGCGCUACAAGGGCACCAUAGUAUUUUUUUUGCUGCCUCCGAGUCCCCACAGCCUUCAAAGAGAAGUGGUAGUAGAUU` has a bound/input enrichment of 1.92 ratio.
`AUCUCUCAUUUUAUAUGUCCAAAAAAAGUUUGGAAUUUUUAAACAACUGCUAGUUUUAAUUAGCUCUGCCCUCAUGAAGUAUUAUAAUCACCAAAAACAGAUACCUGUCUGAAUUACUUC` has a bound/input enrichment of 0.544 ratio.
With `AAUUGACCAAAAACGUUUCCACUGGGUUUUGCCUGUAAGAAAAAAACGUACCUGAGCACAUAGAGCUUUUUAAUAGCACUAACCAAUGCCUUUUUAGAUGUAUUUUUGAUGUAUAUAUCU` the bound/input enrichment was 0.809 ratio.
The bound/input enrichment of `GUCCCUCAGCGACAGCAUGCCUUCGGUUGCAGAUUCCCACUCGAGCCACUUCUCCGAAUUCAGUUGUUGUGACCUGGAGAGCGUGAAGACCUCGUGCAGCCACGGCUCCGGGGACUGCCA` is reported as 0.311 ratio.
`UGGGUUAUUCCUAUAAUUAUCAAGUAGCUGGAAUUGUGAAGGUCGGAGUAGUUAGAUCUUUAGCUUUUAUUCCUUUUUUUUGUAUUACUAUCCAUGUGUAUAAAUUAUUGAUCAUGUUGC` has a bound/input enrichment of 2.17 ratio.
`GAAUAGAACUCUUGCAUUCUUAGAUGUUAUAAAAAUAUAAAUCUGAAUUGUAAGAGUUAGCAUAGGUUUUUUUUUUUAAGCACUUGUUUUGAGUACAAGUCAUUUCGGAAAUUUUAUAUA` has a bound/input enrichment of 1.24 ratio.

Study 3
Target: Ras GTPase-activating protein-binding protein 1, C-terminal RGG region (G3BP1, Homo sapiens, UniProt Q13283)
Sequence of UniProt Q13283 (whole entry, looked up): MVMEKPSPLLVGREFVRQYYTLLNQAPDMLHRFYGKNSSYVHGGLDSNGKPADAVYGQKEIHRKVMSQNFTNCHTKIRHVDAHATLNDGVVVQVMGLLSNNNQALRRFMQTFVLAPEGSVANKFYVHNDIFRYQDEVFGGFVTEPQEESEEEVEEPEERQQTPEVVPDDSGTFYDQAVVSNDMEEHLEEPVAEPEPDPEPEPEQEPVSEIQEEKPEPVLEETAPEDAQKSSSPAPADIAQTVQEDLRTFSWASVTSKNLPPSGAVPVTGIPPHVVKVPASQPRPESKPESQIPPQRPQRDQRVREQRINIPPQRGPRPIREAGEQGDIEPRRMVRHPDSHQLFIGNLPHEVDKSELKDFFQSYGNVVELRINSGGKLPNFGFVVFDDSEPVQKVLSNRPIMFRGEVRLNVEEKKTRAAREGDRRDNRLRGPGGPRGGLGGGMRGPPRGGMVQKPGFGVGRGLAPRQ
Method: RNA Bind-n-Seq
Molecule type: RNA
Sample: in vitro
Concentration: 1 µM
Setting: whole 134-nt RNA, ends assumed
With: 150 mM KCl
Baseline: input library
Reading: higher = stronger binding
Constant ends, left off below: GGGAGUUCUACAGUCCGACGAUC … UGGAAUUCUCGGGUGUCAAGG
With `CCUGUGCUACACAUCGUAUGUACCGAAUCGGGCCCCCCGGGGCCCCCCGGGCCCCCCGGGGAAAGUAUUAUGUUACGCCGUUCGGAUCUG` the log2 enrichment was -2.24.
The log2 enrichment of `UCCUGUGCUACACAUCGUAUGUACCGAAUCGGGUUUGGGUUUUUUUGGGAAAAAAAGGGAAAGUAUUAUGUUACGCCGUUCGGAUCUGCA` is reported as -0.283.
With `CAAGUCCUGUGCUACACAUCGUAUGUACCGAAUCGGGGUGGGGAGGGGAAAGGGGAAAGUAUUAUGUUACGCCGUUCGGAUCUGCACUUC` the log2 enrichment was 3.07.
`UCCUGUGCUACACAUCGUAUGUACCGAAUCGGGAAAAAAGGGAAAAAAGGAAAAAAGGGAAAGUAUUAUGUUACGCCGUUCGGAUCUGCA` gave a log2 enrichment of -1.09.
With `CAAAGACAACACGCACCCACACAGACACAGAGGGAAGGGGUUGGGAUGGGGACAGGGUGCACAGCAGGGCGGGGUAGGACCCCAGCCCCU` the log2 enrichment was -0.441.
With `CAAGUCCUGUGCUACACAUCGUAUGUACCGAAUCGGGAAAGGGUUUGGGUUUGGGAAAGUAUUAUGUUACGCCGUUCGGAUCUGCACUUC` the log2 enrichment was 2.01.
The log2 enrichment of `CCUGUGCUACACAUCGUAUGUACCGAAUCGGGAAAAAAAGGGAAAAAAAGGGUUUUUGGGAAAGUAUUAUGUUACGCCGUUCGGAUCUGC` is reported as -1.72.
`UCCUCAAGUCCUGUGCUACACAUCGUAUGUACCGAAUCGGUGGGUGGUGGGGAAAGUAUUAUGUUACGCCGUUCGGAUCUGCACUUCCAG` has a log2 enrichment of 0.409.
`AGUCCUGUGCUACACAUCGUAUGUACCGAAUCGGGGCCCCGGGGCCCCGGGGCCCCGGAAAGUAUUAUGUUACGCCGUUCGGAUCUGCAC` has a log2 enrichment of -2.03.
The log2 enrichment of `GGGGGUGACCGCCGGAGCGCGGCGUGAGCCCUCCCCCUUGGGAUCCCGCAGCUGACCAGUCGCGCUGACGGACAGACAGACAGACACCGC` is reported as -2.04.
For `UGUGCUACACAUCGUAUGUACCGAAUCGGGAAAAAAAGGGGAAAAAAAGGGGAAAAAAAGGGGAAAGUAUUAUGUUACGCCGUUCGGAUC`, the log2 enrichment was -0.752.
`AAGUCCUGUGCUACACAUCGUAUGUACCGAAUCGGGAAAGGGAAAAAGGGUUUGGGAAAGUAUUAUGUUACGCCGUUCGGAUCUGCACUU` gave a log2 enrichment of 1.33.
The log2 enrichment of `GUCCUGUGCUACACAUCGUAUGUACCGAAUCGGUUUUUGGGUUUUUGGGGUUUUUGGGAAAGUAUUAUGUUACGCCGUUCGGAUCUGCAC` is reported as -0.747.
For `UGGGAGGUGGAUUUUGUUUAUUUUUUUAGCUCAUUUCCAGGGGUGGGAAUUUUUAUUUAAUAUGUGUCAUGAAUAAAGUUGUUUUUGAAA`, the log2 enrichment was 2.97.

Study 4
Target: RNA binding protein fox-1 homolog 2, RRM domain, GST-SBP tag (RBFOX2, Homo sapiens, UniProt O43251-10, residues 100-194)
Method: RNA Bind-n-Seq
Molecule type: RNA
Sample: in vitro
Concentration: 365 nM
Setting: natural RNA segment, single round, ends assumed
Baseline: no-protein control
Reading: higher = stronger binding
Constant ends, left off below: GGGAGUUCUACAGUCCGACGAUC … UGGAAUUCUCGGGUGCCAA
Construct (chain): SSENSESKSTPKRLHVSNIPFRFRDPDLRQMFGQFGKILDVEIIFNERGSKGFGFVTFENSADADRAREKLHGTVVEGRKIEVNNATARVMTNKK
For `AAAUUUGUAACUUUAUAAACAUGUUUUAUGCUUGAGGAAAUUUUUAAGGUGGUAGUAUAAAUGGAAACUUUUUGAAGUAGACCAGAUAUGGGCUACUUGUGACUAGACUU`, “RBNS enrichment (R)” read 1.09.
`CGUACUUUAAAUUUUUGUUAUGAAAUAAAAAAAAGAUGGGUUUUGUAAAAAUAAAAAAAAAAUAUUUUUAGCAGAACAGGACUUACAGGGUCAUUGUCCCCACAAUGUGC`: “RBNS enrichment (R)” 0.548.
Under “RBNS enrichment (R)”, `UGAUUAACCAUUUUUUUUUUAGUUUAUAUUAGUACUUUGUACAUAGUAGGCAUUUAGCAAACAUUUAUUGACAAAAAAUAAAACAAAAACUGACAAAUGAAUGUGUAUAA` is recorded as 0.373.
`GUGAAGUGUCUUCUGUAUUCAAAUCAAAAAAUAAUAUAUUUAAGGUAUAUAAGUGUGAAUCUCCUAUAAUGAUGGAAGAAGAGGUUCUCUUGUCUUAGAUAGAAAAGAGC` — result for “RBNS enrichment (R)”: 1.72.
Under “RBNS enrichment (R)”, `UGCAGCUGGGAGGAGGUCCGAGUACCUCUUCAGUGGCUCUCAGGGGCCAUUUCUGUGGAAGGGGUAGAGGUAGGUGGCACAGAAGAUGGGGCUUUGCGCUUGUAAAUACU` is recorded as 0.864.
`AUUUUAUGGUUUUUUUUUAAAAUCGUGUUUUGUCACAGAUGCCCCUAGUGUUUGUGCUAACCUAGUCAGAAGCAAGUGUCUCACUCACUUGCUGCAGAUGGAACAAAUGC` — result for “RBNS enrichment (R)”: 0.389.
For `CCUCUGACAUACUCCCCACACCCAGUUGAUGGCUUUCCGUAAUAAAAAGAUUGGGAUUUCCUUUUGAUUGCGCGUUUGUGUGUUUCUGUAUUAGAAAAGCCUGACAACUG`, “RBNS enrichment (R)” read 0.443.
Under “RBNS enrichment (R)”, `CCUGGAUAGCUCGCUUGGAUGAAUUGAUGGUGUUUAGCAGUUUUUAUAUACUUCCUCCGGGUCUCUAGGAACUCAGACUUUUUUAAACAUAGAUGUAAAUAAGGAACAGU` is recorded as 0.905.
`UCAAUUUUGACUUAAUGUGAUUACUGCUCUAUUCCAAAAAGGUUGCUGUUUCACAAUACCUCAUGCUUCACUUAGCCAUGGUGGACCCAGCGGGCAGGUUCUGCCUGCUU` — result for “RBNS enrichment (R)”: 0.243.
`GGCUGGGUUGACAGAGUGGUCUGCCUGUUUGUUGUCUGUGCUCAGCUUGCAGAAGCUGCCAGCUGUGCUCACACCACCACCUGGGACAACCACUCGUUGGUCAAGUUCAG`: “RBNS enrichment (R)” 0.399.
For `ACUAAUGGAGUUUCAUUGUAACUGUCCUUUGUAAUUUAUAUAAAUGUAUUAUUUUCCUAUAUCCUUGGUUCUUUUCUGAUAAUUUACAGAUUUAGCUUUUCUUUUGUUAU`, “RBNS enrichment (R)” read 1.06.
`CCUAAGGUAACAUAUGUCUCACAUGUAUUCAGACAUACAGGAUGCUAAUCCACCUUGCAUCCUGCUGUCCAGGUGGACUUCUGUUAGGGACCCAAGGGCCCUUUGGUGUG`: “RBNS enrichment (R)” 0.357.

Repeated from above (study 1):
`CTGGTGGC` gave an E-score of -0.234.
For `CCGAATAC`, the E-score was 0.164.
`AACACTTG` has an E-score of -0.236.
`AAATAGGA` gave an E-score of -0.138.
For `GAACTACA`, the E-score was -0.0336.
The E-score of `CAATCACG` is reported as 0.171.
`CATCCCCC` gave an E-score of -0.0208.
With `ACAGGGAA` the E-score was -0.27.
